# Results pooled from the literature.
# Numbered parts are unrelated; each lists some results of a single study. Positions count from the first letter of the parent shown.

# Study 1
# Target: CCNE2, cyclin fold, Cln2 fusion (human)
# Method: yeast growth competition, sequencing
# Medium: yeast
# Notes: weak parent motif
# Relative to: not given
# Direction: higher = stronger binding
# Starting sequence: SLBP docking peptide (human); ARYKRKLLINDFG
Change,normalised enrichment score
G13D,0.00935
R2E,0.433
G13L,0.179
A1T,1.46
F12N,1.23
G13R,0.54
R5Q,-0.247
R2S,-0.105

# Study 2
# Target: Histone acetyltransferase KAT6A, winged helix 2, GST fusion (KAT6A, Homo sapiens, UniProt Q92794, residues 85-181)
# Method: protein binding microarray
# Form: double-stranded DNA, one strand shown
# Medium: in vitro
# Concentration: not given
# Notes: 8-mer, flanks averaged, mean of 2 arrays, mostly near background
# Relative to: not given
# Direction: higher = stronger binding
# Residues (chain): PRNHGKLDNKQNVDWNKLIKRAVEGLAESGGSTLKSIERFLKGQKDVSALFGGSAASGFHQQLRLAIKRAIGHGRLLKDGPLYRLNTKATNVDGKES
Sequence,E-score
ACATCACA,-0.161
ATTAGGCA,0.0163
CAAGTCAC,-0.0906
GAGTCGGA,-0.16
CCCAATTC,0.158
GGGGGTTA,-0.288
ATAACGTA,-0.125
GAACCTTC,0.0329

# Study 3
# Target: Ras GTPase-activating protein-binding protein 1, full length (G3BP1, Homo sapiens, UniProt Q13283)
# Chain of UniProt Q13283 (whole entry, looked up): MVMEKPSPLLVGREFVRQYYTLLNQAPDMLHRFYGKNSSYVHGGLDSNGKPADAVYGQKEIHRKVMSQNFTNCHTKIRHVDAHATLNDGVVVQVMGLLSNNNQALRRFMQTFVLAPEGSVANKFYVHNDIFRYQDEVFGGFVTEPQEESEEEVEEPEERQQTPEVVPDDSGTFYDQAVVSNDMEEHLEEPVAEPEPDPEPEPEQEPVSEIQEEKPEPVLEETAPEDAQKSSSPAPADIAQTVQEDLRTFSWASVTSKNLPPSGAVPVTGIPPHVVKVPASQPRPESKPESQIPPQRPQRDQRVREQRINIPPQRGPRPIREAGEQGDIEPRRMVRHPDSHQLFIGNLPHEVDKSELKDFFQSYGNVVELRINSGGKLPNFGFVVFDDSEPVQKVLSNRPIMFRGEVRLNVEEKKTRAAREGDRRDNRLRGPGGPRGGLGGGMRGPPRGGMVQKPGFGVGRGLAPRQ
# Method: RNA Bind-n-Seq
# Form: RNA
# Medium: in vitro
# Concentration: 200 nM
# Notes: whole 134-nt RNA, ends assumed
# Together with: 150 mM KCl
# Relative to: input library
# Direction: higher = stronger binding
# Constant ends, left off below: GGGAGUUCUACAGUCCGACGAUC … UGGAAUUCUCGGGUGUCAAGG
Sequence,log2 enrichment
UUACAUUACCUGGUGAAAUAGACAUUGACAGUAUCUCCUAUGAAGAGCUUUCACCACCUGAUGAAGAGCCUGCCAAGAAUAAAAAGGAAA,-1.1
CCUGUGCUACACAUCGUAUGUACCGAAUCAAACCCCCCCAAAUUUUUAAAUUUUUUUAAAAAAGUAUUAUGUUACGCCGUUCGGAUCUGC,0.232
CAAGUCCUGUGCUACACAUCGUAUGUACCGAAUCGGUUUGGUUUUUUUGGAAAGGAAAGUAUUAUGUUACGCCGUUCGGAUCUGCACUUC,-1.01
CCUCAAGUCCUGUGCUACACAUCGUAUGUACCGAAUCGGGGCGGGCGGGGCGGAAAGUAUUAUGUUACGCCGUUCGGAUCUGCACUUCCA,1.16
CACAGACAACACGCACCCACACAGACACAGAGGGAAGGGGUUGGGAUGGGGACUGGGUGCACAGCAGGGCGGGGUAGGACCCCAGCCCCU,1.89
AGUCCUGUGCUACACAUCGUAUGUACCGAAUCGGGCCCCGGGGCCCCGGGGCCCCGGGAAAGUAUUAUGUUACGCCGUUCGGAUCUGCAC,0.374
UGCAGAAGCAUCUUCAGUUGGAGAGCCAUUGCCUCUUGCUGUGAAAUAUUUGGGAAUCUUCAGAAACCAUGAAGAAUAACCUGCUAAAGG,-1.66
UCAAGUCCUGUGCUACACAUCGUAUGUACCGAAUCGGUUUGGAGGAAAAAAAGGAAAGUAUUAUGUUACGCCGUUCGGAUCUGCACUUCC,-0.624
ACCAUGCAGGUGGGCAUCUUUGGGAAGUGGGGCAAGGGGGGGAUAGGGAGGGGGGUAACACUCUGGGAACAGGUGGUCCCAGGUCGUUUC,0.996
GCAGGAAGUAAAAACAAAUGGAAAUGGUUCGGAUAGUGGCAGGGGUGGGGGUUGCUAAGGAAAGGGUGGGAUGGGAGUGGGUAAAGAGUU,1.14

# Other studies, line by line
Molecule,target,test,system,setting,how to read,measurement,value
"PhoQ, residues 284 288 289 292 302 303 SSYNSA","PhoP, residues 12 14 15 18 19 NMSFL (Escherichia coli, UniProt P23836)","Sort-seq, refers to: YFP reporter",E. coli,"PhoQ-PhoP variant library, together with: 10 µM Mg2+","relative to: high Mg2+ state, higher = stronger signaling",fold induction,11.7

# For quick reference, copied from above (study 1):
Change,normalised enrichment score
R2E,0.433
A1T,1.46
G13D,0.00935
G13L,0.179
